Results of several laboratories.
Protocols differ between the studies behind these lines. ± marks the error that the study gave.

NC1(c2ccccc2Cl)CCCCC1=O (racemic)
half-life (male Wistar rats, plasma; intraperitoneal, 40 mg/kg single dose): 6.2 ± 3.1 h

CN1CC[C@@]23CCCC[C@@H]2[C@@H]1Cc1ccc(O)cc13
half-life (Wistar rat, both sexes, plasma; oral, 5 mg/kg DEM, DEM 2 h after pretreatment, added: TCE 400 mg/kg single pretreatment): 4.51 ± 2.62 h

Clc1cccc(-c2cccc(Cl)c2)c1
half-life (Sprague-Dawley rats, male, lung, liver and serum; inhalation, 106 µg/m3): 2 h

C[C@H]1CNCCc2ccc(Cl)cc21
half-life (male Sprague-Dawley rat, plasma; subcutaneous, pimavanserin 1 + lorcaserin 1 mg/kg, pimavanserin 15 min earlier): 1.71 ± 0.07 h

Oc1ccc(-c2cccc(Cl)c2)cc1Cl
half-life (Sprague-Dawley rats, male, liver; inhalation, 106 µg/m3, metabolite of inhaled precursor): 2.4 h

CC(C)[C@@H](CC1CCCCC1)NC(=O)[C@H]1Cc2ccc(C(N)=O)cc2CN1
half-life (Sprague-Dawley rat, male; 5 mg/kg): 2.3 h

Cc1cccc(C)c1OCC(=O)N[C@@H](Cc1ccccc1)[C@@H](O)C[C@H](Cc1ccccc1)NC(=O)[C@H](C(C)C)N1CCCNC1=O
half-life (male Sprague-Dawley rats, plasma; oral, 160 mg/kg, added: QPD 6 g/kg oral, 30 min before): 2.66 h

COc1cc2c3c(c4cc(OC)c(OC)cc4c2cc1OC)CN1CCC[C@@H]1C3
half-life (Sprague-Dawley rats, male; intravenous, dose not given): ~4 h

CN1C(=O)CC(=O)N(c2ccccc2)c2cc(Cl)ccc21
half-life (Sprague Dawley rat, brain; intraperitoneal, 17 mg/kg): 1.54 h

CCCC(=O)OCSc1ccccc1C(=O)NCCC(N)=O
half-life (Sprague-Dawley rat, male, plasma; oral, 1000 mg/kg): 0.5 ± 0.1 h

CC(C)C[C@H](NC(=O)[C@@H](NC(=O)[C@H](Cc1ccc(O)cc1)NC(=O)[C@@H]1CCCN1C(=O)[C@H](CCCNC(=N)N)NC(=O)[C@@H](C)CCC[N+](C)(C)C)C(C)(C)C)C(=O)O
half-life (refers to: NTR-1 binding activity; rat, plasma; iv, 1 mg/kg): 0.407 h

Nc1ncn([C@@H]2O[C@H](CO)[C@@H](O)[C@H]2O)c(=O)n1
half-life ratio (male Rowett nude rat, blood; inhaled vs intraperitoneal, 0.6 vs 2 mg/kg; relative to: aerosol over intraperitoneal): 2.9 fold

COC(=O)COC(=O)c1cncn1[C@H](C)c1ccccc1
half-life (metabolic stability; Sprague-Dawley rat, pooled blood): < 0.000556 h

O=C(NCCS)c1cccc(C(=O)NCCS)c1
half-life (rat, Sprague-Dawley, male, plasma; intravenous, 1 mg/kg): 5.83 h
